Results pooled from the literature.
Protocols differ between the studies behind these lines. Numbers after ± are the reported error.
CA2: Carbonic anhydrase 2 (CA2, Homo sapiens, UniProt P00918)
MT-CYB: MT-CYB (Plasmodium falciparum, UniProt Q02768)
Sequence of UniProt Q02768 (whole entry, looked up): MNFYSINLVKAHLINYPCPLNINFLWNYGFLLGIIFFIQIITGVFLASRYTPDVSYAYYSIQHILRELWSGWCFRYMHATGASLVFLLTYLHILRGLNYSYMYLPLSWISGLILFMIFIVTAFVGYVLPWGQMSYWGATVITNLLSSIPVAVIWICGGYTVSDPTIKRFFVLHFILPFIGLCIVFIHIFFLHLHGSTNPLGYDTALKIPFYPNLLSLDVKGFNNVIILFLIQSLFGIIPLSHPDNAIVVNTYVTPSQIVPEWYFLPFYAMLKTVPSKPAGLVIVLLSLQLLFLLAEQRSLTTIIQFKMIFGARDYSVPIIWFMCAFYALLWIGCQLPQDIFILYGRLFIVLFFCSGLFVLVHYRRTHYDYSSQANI
APP: Amyloid-beta precursor protein (APP, Homo sapiens, UniProt P05067)
Sequence of UniProt P05067 (whole entry, looked up): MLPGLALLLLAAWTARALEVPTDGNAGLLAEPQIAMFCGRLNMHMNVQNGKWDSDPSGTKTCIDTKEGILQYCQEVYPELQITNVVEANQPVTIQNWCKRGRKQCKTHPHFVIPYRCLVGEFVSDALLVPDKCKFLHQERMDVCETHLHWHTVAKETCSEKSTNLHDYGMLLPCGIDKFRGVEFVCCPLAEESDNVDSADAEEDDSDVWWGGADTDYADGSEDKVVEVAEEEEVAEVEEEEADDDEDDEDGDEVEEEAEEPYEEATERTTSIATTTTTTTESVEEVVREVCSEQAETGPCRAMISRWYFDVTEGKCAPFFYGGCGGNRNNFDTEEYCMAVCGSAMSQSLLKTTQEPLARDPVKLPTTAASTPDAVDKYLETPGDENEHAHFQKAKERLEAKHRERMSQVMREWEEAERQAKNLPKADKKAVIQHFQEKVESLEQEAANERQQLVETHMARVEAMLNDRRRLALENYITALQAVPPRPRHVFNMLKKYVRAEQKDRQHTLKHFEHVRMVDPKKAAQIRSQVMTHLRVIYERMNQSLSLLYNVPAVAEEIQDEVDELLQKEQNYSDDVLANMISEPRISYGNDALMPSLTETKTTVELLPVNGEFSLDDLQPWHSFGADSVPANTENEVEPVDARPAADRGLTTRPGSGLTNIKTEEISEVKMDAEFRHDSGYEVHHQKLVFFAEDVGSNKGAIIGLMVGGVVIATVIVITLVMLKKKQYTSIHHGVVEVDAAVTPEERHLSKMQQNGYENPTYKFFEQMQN
MAPK14: Mitogen-activated protein kinase 14 (MAPK14, Homo sapiens, UniProt Q16539)
Sequence of UniProt Q16539 (whole entry, looked up): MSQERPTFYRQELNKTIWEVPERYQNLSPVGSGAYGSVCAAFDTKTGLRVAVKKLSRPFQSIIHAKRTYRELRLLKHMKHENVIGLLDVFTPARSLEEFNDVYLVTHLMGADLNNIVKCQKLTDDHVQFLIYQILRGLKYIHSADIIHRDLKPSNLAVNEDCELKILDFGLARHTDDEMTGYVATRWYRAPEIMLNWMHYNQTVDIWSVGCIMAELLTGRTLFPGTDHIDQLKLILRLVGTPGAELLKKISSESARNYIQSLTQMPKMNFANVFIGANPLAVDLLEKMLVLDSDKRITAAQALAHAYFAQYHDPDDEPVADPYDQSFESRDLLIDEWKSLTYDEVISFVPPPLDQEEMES
PPIA: Peptidyl-prolyl cis-trans isomerase A (PPIA, Homo sapiens, UniProt P62937)
Sequence of UniProt P62937 (whole entry, looked up): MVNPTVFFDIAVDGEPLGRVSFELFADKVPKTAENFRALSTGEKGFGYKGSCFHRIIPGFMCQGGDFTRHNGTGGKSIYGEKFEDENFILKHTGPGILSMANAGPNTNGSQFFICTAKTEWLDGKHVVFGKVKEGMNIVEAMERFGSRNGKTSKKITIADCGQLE
CDK9: Cyclin-dependent kinase 9 (CDK9, Homo sapiens, UniProt P50750)
Sequence of UniProt P50750 (whole entry, looked up): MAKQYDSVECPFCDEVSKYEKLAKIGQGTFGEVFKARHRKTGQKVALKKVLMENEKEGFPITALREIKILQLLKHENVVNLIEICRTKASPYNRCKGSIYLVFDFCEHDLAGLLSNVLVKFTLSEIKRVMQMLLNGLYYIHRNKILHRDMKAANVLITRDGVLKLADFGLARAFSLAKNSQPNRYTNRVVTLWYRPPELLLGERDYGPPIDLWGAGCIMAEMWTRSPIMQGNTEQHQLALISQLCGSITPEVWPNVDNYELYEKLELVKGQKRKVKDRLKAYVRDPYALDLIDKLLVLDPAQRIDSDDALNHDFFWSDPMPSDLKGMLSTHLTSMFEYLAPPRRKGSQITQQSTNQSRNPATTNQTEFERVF
SMPD1: Sphingomyelin phosphodiesterase (SMPD1, Homo sapiens, UniProt P17405)
Sequence of UniProt P17405 (whole entry, looked up): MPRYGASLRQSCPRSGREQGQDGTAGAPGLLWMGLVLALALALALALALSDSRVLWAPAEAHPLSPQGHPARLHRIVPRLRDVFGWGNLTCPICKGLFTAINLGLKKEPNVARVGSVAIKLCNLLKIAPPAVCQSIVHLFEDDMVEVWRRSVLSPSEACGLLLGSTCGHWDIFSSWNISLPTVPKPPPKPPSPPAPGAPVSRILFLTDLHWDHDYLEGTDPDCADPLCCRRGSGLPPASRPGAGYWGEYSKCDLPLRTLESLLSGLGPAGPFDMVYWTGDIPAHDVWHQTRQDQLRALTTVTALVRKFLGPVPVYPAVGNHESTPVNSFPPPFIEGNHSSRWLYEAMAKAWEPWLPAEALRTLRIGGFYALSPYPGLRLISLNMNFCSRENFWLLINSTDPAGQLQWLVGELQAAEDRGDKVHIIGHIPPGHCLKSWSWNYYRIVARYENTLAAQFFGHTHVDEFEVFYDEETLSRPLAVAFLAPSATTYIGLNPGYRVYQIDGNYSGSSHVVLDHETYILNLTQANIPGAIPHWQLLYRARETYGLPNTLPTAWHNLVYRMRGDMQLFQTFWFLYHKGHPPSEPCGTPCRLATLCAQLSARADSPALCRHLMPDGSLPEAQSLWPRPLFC
Sequence of UniProt P09211 (whole entry, looked up): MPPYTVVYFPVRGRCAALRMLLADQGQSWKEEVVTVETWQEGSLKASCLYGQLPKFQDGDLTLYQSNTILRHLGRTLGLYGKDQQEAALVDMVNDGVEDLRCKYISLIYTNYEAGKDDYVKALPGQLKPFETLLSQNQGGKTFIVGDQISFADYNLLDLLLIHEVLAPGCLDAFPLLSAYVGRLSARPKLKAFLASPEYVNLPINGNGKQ
Sequence of UniProt P08913 (whole entry, looked up): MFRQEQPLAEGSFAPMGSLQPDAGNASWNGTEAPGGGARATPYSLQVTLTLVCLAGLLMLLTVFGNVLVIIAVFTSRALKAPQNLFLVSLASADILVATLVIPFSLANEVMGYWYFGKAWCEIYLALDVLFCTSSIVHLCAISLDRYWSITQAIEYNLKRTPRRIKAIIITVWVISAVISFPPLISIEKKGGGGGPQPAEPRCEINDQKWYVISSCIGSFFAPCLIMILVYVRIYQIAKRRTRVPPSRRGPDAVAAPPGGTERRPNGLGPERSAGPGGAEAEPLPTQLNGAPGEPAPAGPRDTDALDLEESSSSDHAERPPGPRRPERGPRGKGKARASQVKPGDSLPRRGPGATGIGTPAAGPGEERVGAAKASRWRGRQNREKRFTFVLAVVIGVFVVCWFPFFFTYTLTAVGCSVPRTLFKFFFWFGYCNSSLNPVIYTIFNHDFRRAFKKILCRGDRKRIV
Sequence of UniProt Q62645 (whole entry, looked up): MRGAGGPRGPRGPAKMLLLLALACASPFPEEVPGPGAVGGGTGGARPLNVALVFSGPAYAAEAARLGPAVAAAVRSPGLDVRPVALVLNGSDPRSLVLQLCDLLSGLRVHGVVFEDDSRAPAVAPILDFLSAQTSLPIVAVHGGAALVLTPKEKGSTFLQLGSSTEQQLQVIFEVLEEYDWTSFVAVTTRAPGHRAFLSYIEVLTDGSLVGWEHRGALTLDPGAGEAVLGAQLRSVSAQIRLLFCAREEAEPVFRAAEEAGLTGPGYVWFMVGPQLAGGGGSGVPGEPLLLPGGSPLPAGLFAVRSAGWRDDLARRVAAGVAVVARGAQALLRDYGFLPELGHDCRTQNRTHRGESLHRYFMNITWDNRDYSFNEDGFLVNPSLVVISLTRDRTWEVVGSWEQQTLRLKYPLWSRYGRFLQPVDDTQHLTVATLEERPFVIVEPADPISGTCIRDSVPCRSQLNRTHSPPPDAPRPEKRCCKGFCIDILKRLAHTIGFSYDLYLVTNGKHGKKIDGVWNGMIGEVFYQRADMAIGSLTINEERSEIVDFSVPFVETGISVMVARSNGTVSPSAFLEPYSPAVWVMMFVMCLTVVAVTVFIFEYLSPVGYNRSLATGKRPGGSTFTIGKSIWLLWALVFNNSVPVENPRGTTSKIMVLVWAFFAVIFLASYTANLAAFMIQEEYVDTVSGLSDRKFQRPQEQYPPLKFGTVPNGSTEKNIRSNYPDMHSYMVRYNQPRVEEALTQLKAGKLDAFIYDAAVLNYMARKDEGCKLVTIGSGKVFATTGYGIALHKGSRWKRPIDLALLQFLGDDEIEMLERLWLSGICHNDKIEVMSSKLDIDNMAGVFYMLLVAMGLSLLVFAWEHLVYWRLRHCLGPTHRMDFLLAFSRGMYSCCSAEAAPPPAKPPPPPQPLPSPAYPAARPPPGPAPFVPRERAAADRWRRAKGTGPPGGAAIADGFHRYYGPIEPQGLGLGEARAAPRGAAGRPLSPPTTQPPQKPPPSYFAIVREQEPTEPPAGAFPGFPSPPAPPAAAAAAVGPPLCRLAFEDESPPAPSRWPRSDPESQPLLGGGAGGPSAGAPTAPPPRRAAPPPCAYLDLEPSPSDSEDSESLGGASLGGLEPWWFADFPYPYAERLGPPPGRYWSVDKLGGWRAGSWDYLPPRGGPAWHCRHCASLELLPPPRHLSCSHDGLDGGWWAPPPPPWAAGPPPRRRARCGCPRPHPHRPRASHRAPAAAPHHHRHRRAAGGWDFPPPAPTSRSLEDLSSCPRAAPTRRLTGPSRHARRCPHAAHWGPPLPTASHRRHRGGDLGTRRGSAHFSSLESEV

SMILES | target | test | system | setting | inhibition
Cc1ccc(C2CC(c3cc(Br)ccc3O)=NN2c2ccc(S(N)(=O)=O)cc2)cc1 (centres unmarked) | CA2 | enzyme activity, inhibitor, absorbance | – | 1 mM | 31%
COc1ccc2nc(/C=C/c3cccc([N+](=O)[O-])c3)n(-c3ccc(C(=O)O)cc3)c(=O)c2c1 | Ionotropic glutamate receptor NMDA 1/2D (Rattus norvegicus, UniProt P35439+Q62645) | ion current, inhibitor, whole-cell voltage clamp | HEK293 | 10 µM, instantaneous current, added: glutamate pre-applied | ~66%
O=C(Nc1ccccc1O)c1ccc(S(=O)(=O)c2ccc(Cl)cc2)cc1 | MT-CYB | enzyme activity, inhibitor | – | 0.5 µM | 65.5%
CCC[C@H](N)C(=O)N[C@H](C(=O)N[C@H](C(=O)N[C@@H](C)C(N)=O)[C@@H](C)CC)C(C)C | APP | amyloid aggregation, inhibitor, fluorescence | – | 2 µM, 24 h | 77.2%
OCc1cn([C@H]2O[C@H](CO)[C@@H](O)[C@H](O)[C@H]2O)nn1 | GAA (Homo sapiens, UniProt P10253) | enzyme activity, inhibitor, fluorescence | – | 1.43 mM, pH 4, lysate | 12%
Clc1ccc(N2CCN(Cc3c[nH]c4ncccc34)CC2)cc1 | ADRA2A (Homo sapiens, UniProt P08913) | [3H]RX821002 binding, radioligand displacement | Sf9 membranes | concentration not given | ~30%
Cc1cc(Nc2ccc(C(F)(F)F)nc2)n2nc(C(C)(F)F)nc2n1 | off-target panel | – | – | 10 µM, all except adenosine A3 | ≤ 19%
CC[C@H](C)[C@H](NC(=O)[C@@H](NC(=O)[C@H]1CCCN1)C(C)C)C(=O)N[C@@H](C)C(N)=O | APP | amyloid aggregation, inhibitor, fluorescence | – | 2 µM, 24 h | 60.8%
Cc1c(C)c2c(c(C)c1O)CC[C@@](C)(CCCCCCCCCn1ccnc1)O2 | Cytochrome P450 4F2 (Homo sapiens, UniProt P78329) | γ-tocopherol metabolism | HepG2 | 1 µM, 6 h pre-incubation, added: γ-tocopherol 25 µM for 24 h after washout | inhibited
CN(C)C/C=C/C(=O)Nc1cccc(C(=O)Nc2ccc(Nc3nccc(-c4c(-c5ccccc5)nn5ccccc45)n3)cc2)c1 | MAPK14 | ATP-biotin kinase labeling, KiNativ | A-375 | 1 µM, 3 h | 95.9%
COC(=O)c1cc(Cc2ccc(NCc3ccccc3)c(C(=O)O)c2)ccc1NCc1ccccc1 | PPIA | enzyme activity, inhibitor | – | 10 µM | 6.5%
CC(C)(C)c1cnc(CSc2cnc(NC(=O)C3CCN(CC(=O)NCCOCCOCCOCCNc4cccc5c4C(=O)N(C4CCC(=O)NC4=O)C5=O)CC3)s2)o1 (centres unmarked) | CDK9 | target engagement in cells, inhibitor, chemoproteomics | MOLT-4 | 0.25 µM | 30.7%
COC(=O)c1cc(CCc2ccc(NC(=O)c3cc(OC)cc(OC)c3)c(C(=O)OC)c2)ccc1NC(=O)c1cc(OC)cc(OC)c1 | PPIA | enzyme activity, inhibitor | – | 10 µM | 15.6%
CC[C@H](C)[C@H](NC(=O)[C@H](NC(=O)[C@@H](N)C(C)C)C(C)C)C(=O)N[C@@H](C)C(N)=O | APP | amyloid aggregation, inhibitor, fluorescence | – | 2 µM, 24 h | 89.3%
O=C(/C=C/C1=CC(=O)C(=O)C=C1)OCCc1ccccc1 | GSTP1 (Homo sapiens, UniProt P09211) | enzyme activity | human placenta | 10 to 50 µM, added: CDNB | 70 to 93%
COc1cc(C(=O)Nc2scc(-c3ccc(Br)cc3)c2C(=O)O)cc(OC)c1OC | SMPD1 | inhibitor | – | concentration not given, pH 6.5, added: sphingomyelin substrate | inactive

SMILES | target | test | system | setting | inhibition
CNC(=O)[C@H](Cc1c[nH]c2ccccc12)NC(=O)[C@@H](CC(=O)NO)CC(C)C | Matrix metalloproteinase-14, ectodomain (MMP14, Homo sapiens, UniProt P50281) | amyloid plaque degradation | Tg2576 brain sections | 100 µM, 5 days, 37 °C | inhibited
CC(C)(C)c1cnc(CSc2cnc(NC(=O)C3CCNCC3)s2)o1 | CDK9 | probe labeling, KiNativ live-cell profiling | MOLT-4 | 0.25 µM | 34.1%
Cc1cccc(C)c1C(=O)OCC(=O)[C@H](CCCCN)NC(=O)[C@H](CCCN=C(N)N)NC(=O)OCc1ccccc1 | Cathepsin B (CTSB, Homo sapiens, UniProt P07858) | peptide library cleavage, MSP-MS | – | 64 nM, 1 h, pH 7.2 | inhibited
CCCC[C@H](NC(=O)C(=O)CCCCc1ccc(OC)cc1)C(=O)N[C@@H](C)C(=O)OC(C)(C)C | PLA2G4A (Homo sapiens, UniProt P47712) | enzyme activity, mixed micelle | – | 0.091 mole fraction | 73.4 ± 1.3%
CC[C@H](C)[C@H](NC(=O)[C@@H]1CCCN1C(=O)[C@@H]1CCCN1)C(=O)N[C@@H](C)C(N)=O | APP | amyloid aggregation, inhibitor, fluorescence | – | 2 µM, 24 h | 24.7%
CCCCCCCC(=O)OC[C@H](CO)OC(=O)CCCCCCC | Cnga2 (Rattus norvegicus, UniProt Q00195) | cGMP-activated current, inside-out patch, Xenopus oocytes | – | 0.5 µM, added: cGMP 2 µM | 72%
CC(C)(C)OC(=O)NCCNC(=O)CN1C(=O)Cc2c([nH]c3ccc(Br)cc23)-c2ccc(Cl)cc21 | Trypanothione synthetase (Leishmania infantum, UniProt A4I2Z3) | enzyme activity | – | 30 µM | 37%
Cc1cccc(-c2nn(-c3ccccc3)cc2C(=O)Nc2nnc(C)o2)c1 | MT-CYB | enzyme activity, inhibitor | – | 0.5 µM | 47.9%
Cc1ccc(C2CC(c3ccccc3O)=NN2c2ccc(S(N)(=O)=O)cc2)cc1 (centres unmarked) | CA2 | enzyme activity, inhibitor, absorbance | – | 1 mM | < 50%
CC[C@H](C)[C@H](NC(=O)[C@@H](NC(=O)[C@@H](N)Cc1ccccc1)C(C)C)C(=O)N[C@@H](C)C(N)=O | APP | amyloid aggregation, inhibitor, fluorescence | – | 4 µM, 24 h | 66.2%
Cc1cc(NC(=O)c2cccc(NC(=O)/C=C/CN(C)C)c2)ccc1Nc1nccc(-c2cccnc2)n1 | MAPK14 | ATP-biotin kinase labeling, KiNativ | A-375 | 1 µM, 3 h | 13.2%
c1ccc(CCNc2ncnc3c2[nH]c2ccccc23)cc1 | MT-CYB | enzyme activity, inhibitor | – | 0.5 µM | 63.9%
CC[C@H](C)[C@H](NC(=O)C(C)(C)NC(=O)[C@@H](N)C(C)C)C(=O)N[C@@H](C)C(N)=O | APP | amyloid aggregation, inhibitor, fluorescence | – | 2 µM, 24 h | 52.1%
Clc1ccc(SCCOCCN2CCCCCC2)cc1.O=C(O)C(=O)O | SMPD1 | inhibitor | – | concentration not given, pH 6.5, added: sphingomyelin substrate | inhibited
COc1ccc(NS(=O)(=O)c2cc(NC(=O)Cn3ccccc3=O)ccc2N2CCCCC2)cc1 | MT-CYB | enzyme activity, inhibitor | – | 0.5 µM | 14.6%
COC(=O)c1cc(Cc2ccc(NC(=O)c3ccc(Cl)cc3)c(C(=O)OC)c2)ccc1NC(=O)c1ccc(Cl)cc1 | PPIA | enzyme activity, inhibitor | – | 10 µM | 10.2%

Repeated from above:
SMILES | target | test | system | setting | inhibition
Cc1cc(Nc2ccc(C(F)(F)F)nc2)n2nc(C(C)(F)F)nc2n1 | off-target panel | – | – | 10 µM, all except adenosine A3 | ≤ 19%
Cc1cccc(C)c1C(=O)OCC(=O)[C@H](CCCCN)NC(=O)[C@H](CCCN=C(N)N)NC(=O)OCc1ccccc1 | Cathepsin B (CTSB, Homo sapiens, UniProt P07858) | peptide library cleavage, MSP-MS | – | 64 nM, 1 h, pH 7.2 | inhibited
CC[C@H](C)[C@H](NC(=O)[C@@H]1CCCN1C(=O)[C@@H]1CCCN1)C(=O)N[C@@H](C)C(N)=O | APP | amyloid aggregation, inhibitor, fluorescence | – | 2 µM, 24 h | 24.7%
COC(=O)c1cc(CCc2ccc(NC(=O)c3cc(OC)cc(OC)c3)c(C(=O)OC)c2)ccc1NC(=O)c1cc(OC)cc(OC)c1 | PPIA | enzyme activity, inhibitor | – | 10 µM | 15.6%
CN(C)C/C=C/C(=O)Nc1cccc(C(=O)Nc2ccc(Nc3nccc(-c4c(-c5ccccc5)nn5ccccc45)n3)cc2)c1 | MAPK14 | ATP-biotin kinase labeling, KiNativ | A-375 | 1 µM, 3 h | 95.9%
